Measurements collected from several papers.
Compare with care: the assays were run in different laboratories. ± gives the spread as reported.
Organism: HIV-1

SMILES | read-out | technique | cell line | strain | baseline | endpoint | value
CC[C@H](C)[C@@H]1NC(=O)[C@@H]2CCCN2C(=O)[C@H](C)NC(=O)[C@H](CC(C)C)NC(=O)[C@@H]2CCCN2C(=O)[C@H](C)NC(=O)[C@@H]2CSSC[C@H](NC(=O)[C@H](C)NC(=O)[C@H](C)NC(=O)[C@H](Cc3ccc(O)cc3)NC(=O)[C@@H]3CCCN3C(=O)CNC(=O)[C@H](Cc3c[nH]c4ccccc34)NC1=O)C(=O)N[C@@H](CC(C)C)C(=O)N[C@@H](CO)C(=O)N[C@@H](C)C(=O)N[C@H]1CSSC[C@H](NC(=O)[C@H](C(C)C)NC(=O)[C@@H]3CCCN3C(=O)CNC(=O)CNC(=O)CNC(=O)[C@H](C)NC(=O)[C@H](C)NC(=O)[C@H](CC(C)C)NC1=O)C(=O)N[C@@H](CC(C)C)C(=O)N[C@@H](C)C(=O)N[C@@H](C(C)C)C(=O)N2 | viral replication | – | – | – | – | EC50 | > 128 µg/mL
CC(C)C[C@@H]1NC(=O)[C@H](C(C)C)NC(=O)[C@@H]2CCCN2C(=O)[C@H](C(C)C)NC(=O)[C@H](Cc2ccccc2)NC(=O)CSCCNC(=O)[C@H](Cc2ccccc2)N(C)C(=O)[C@H](CC(C)C)NC(=O)[C@H](Cc2cccc3ccccc23)NC1=O | viral replication | – | MT4 | – | cell EC50 over protease IC50 | EC50/IC50 ratio | 465
Cc1cc(/C=C/C#N)cc(C)c1Oc1nc(NC2CCN(Cc3ccc(S(C)(=O)=O)cc3)CC2)nc2ncccc12 | – | MTT | MT4 | RT L100I/V179D/Y181C mutant | mutant EC50 over IIIB EC50 | resistance fold | 235
O=C(NCCCCCCCC(=O)N1CCCC2=CC3CC(CN4CCCCC34)C21)c1ccc(OC(F)(F)F)cc1 (centres unmarked) | viral replication | multicycle luciferase | MT4 | NL4-3 NanoLuc-sec reporter | – | IC50 | > 20000 nM
C#Cc1ccc(C[C@@H]2NC(=O)CSCCNC(=O)[C@H](Cc3ccccc3)N(C)C(=O)[C@H](CC(C)C)NC(=O)[C@H](CCC3CCCCC3)NC(=O)[C@H](CC(C)C)NC(=O)[C@H](C(C)C)NC(=O)[C@]3(C)CCCN3C(=O)[C@H](C(C)C)NC2=O)cc1 | viral replication | – | MT4 | – | cell EC50 over protease IC50 | EC50/IC50 ratio | 13.7
CCn1c(C)c(CC(=O)N[C@@H](Cc2ccccc2)C(=O)N(C)c2ccc(Cl)cc2)c2ccccc21 | viral infection | – | – | – | – | EC50 | 160 ± 50 nM
C#Cc1ccc(C[C@@H]2NC(=O)CSCCNC(=O)[C@H](Cc3ccccc3)N(C)C(=O)[C@H](CC(C)C)NC(=O)[C@H](Cc3cccc4ccccc34)NC(=O)[C@H](CC(C)C)NC(=O)C(C)(C)NC(=O)[C@@H]3CCCN3C(=O)[C@H](C(C)C)NC2=O)cc1 | viral replication | – | MT4 | – | cell EC50 over protease IC50 | EC50/IC50 ratio | 49.1
CCn1c(C)c(CC(=O)N[C@@H](Cc2ccccc2)C(=O)N(C)c2ccc(F)cc2)c2ccccc21 | viral infection | – | – | – | – | EC50 | 220 ± 6 nM
COc1cc2nc(NC3CCN(Cc4ccc(C(N)=O)cc4)CC3)nc(Oc3c(C)cc(C#N)cc3C)c2cc1OC | viral replication | MTT | MT-4 | IIIB wild type | EC50 mutant over EC50 IIIB | fold resistance | 1
COc1ccc(S(=O)(=O)O)cc1N=Nc1c(S(=O)(=O)O)cc2cc(NCc3nc(CNc4cc(C)c(N=Nc5cc(S(=O)(=O)O)cc6cc(S(=O)(=O)O)cc(O)c56)cc4OC)nc(Nc4ccccc4)n3)ccc2c1O | – | – | – | SF162 K35A pseudovirus | SF162 wild type | IC50 fold change | 1.46 ± 0.45
CCn1c(C)c(CC(=O)N[C@@H](Cc2ccccc2)C(=O)N(C)c2cccc(F)c2)c2ccccc21 | viral infection | – | – | – | – | EC50 | 430 ± 30 nM

Excerpt of the above:
SMILES | read-out | technique | cell line | strain | baseline | endpoint | value
C#Cc1ccc(C[C@@H]2NC(=O)CSCCNC(=O)[C@H](Cc3ccccc3)N(C)C(=O)[C@H](CC(C)C)NC(=O)[C@H](Cc3cccc4ccccc34)NC(=O)[C@H](CC(C)C)NC(=O)C(C)(C)NC(=O)[C@@H]3CCCN3C(=O)[C@H](C(C)C)NC2=O)cc1 | viral replication | – | MT4 | – | cell EC50 over protease IC50 | EC50/IC50 ratio | 49.1
